Measured values collected from several papers.
Each numbered part is a random draw from the data of one study; scales do not carry over between parts.
Sequence of UniProt Q16513 (whole entry, looked up): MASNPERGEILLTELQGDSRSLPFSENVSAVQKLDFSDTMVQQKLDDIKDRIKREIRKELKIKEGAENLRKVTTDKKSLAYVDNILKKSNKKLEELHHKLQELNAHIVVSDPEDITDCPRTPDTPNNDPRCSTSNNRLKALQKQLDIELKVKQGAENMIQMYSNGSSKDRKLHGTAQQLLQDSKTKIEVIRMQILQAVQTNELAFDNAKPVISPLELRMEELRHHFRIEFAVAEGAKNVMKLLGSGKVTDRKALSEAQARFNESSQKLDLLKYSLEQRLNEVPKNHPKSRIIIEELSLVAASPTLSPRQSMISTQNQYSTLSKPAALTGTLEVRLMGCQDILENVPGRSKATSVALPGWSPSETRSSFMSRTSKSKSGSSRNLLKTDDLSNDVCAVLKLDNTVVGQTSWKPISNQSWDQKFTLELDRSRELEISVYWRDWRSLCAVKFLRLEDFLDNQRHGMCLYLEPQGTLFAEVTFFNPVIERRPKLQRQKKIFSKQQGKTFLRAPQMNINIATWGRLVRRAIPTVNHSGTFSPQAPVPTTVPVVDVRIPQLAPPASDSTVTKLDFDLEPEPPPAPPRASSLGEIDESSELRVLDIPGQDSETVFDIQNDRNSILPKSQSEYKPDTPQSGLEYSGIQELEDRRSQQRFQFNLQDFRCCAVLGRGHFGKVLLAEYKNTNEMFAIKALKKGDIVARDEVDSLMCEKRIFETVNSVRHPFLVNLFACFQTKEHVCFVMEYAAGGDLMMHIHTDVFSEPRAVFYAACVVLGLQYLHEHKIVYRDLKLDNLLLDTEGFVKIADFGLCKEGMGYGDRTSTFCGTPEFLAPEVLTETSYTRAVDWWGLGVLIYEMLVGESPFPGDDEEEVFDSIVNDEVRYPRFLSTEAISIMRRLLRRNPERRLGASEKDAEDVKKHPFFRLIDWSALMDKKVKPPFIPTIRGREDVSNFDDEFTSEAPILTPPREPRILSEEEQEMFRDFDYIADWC
Sequence of UniProt Q09013 (whole entry, looked up): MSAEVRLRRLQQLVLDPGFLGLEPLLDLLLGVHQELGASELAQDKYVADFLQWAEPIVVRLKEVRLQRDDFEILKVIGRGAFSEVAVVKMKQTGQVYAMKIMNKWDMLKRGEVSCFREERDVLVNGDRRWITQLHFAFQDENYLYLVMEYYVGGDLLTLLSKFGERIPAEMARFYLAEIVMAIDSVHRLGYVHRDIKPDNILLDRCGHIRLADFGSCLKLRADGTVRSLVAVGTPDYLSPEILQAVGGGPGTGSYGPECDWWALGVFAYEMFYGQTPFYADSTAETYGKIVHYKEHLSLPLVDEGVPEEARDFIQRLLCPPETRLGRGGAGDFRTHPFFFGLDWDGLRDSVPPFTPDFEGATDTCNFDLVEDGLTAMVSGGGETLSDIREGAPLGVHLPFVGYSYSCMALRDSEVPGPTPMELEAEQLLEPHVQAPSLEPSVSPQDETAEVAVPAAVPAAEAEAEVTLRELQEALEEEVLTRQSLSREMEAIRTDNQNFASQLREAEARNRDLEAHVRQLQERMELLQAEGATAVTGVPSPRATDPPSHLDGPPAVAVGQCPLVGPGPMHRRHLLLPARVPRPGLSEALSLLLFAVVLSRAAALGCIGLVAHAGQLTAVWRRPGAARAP
Sequence of UniProt Q8NEB9 (whole entry, looked up): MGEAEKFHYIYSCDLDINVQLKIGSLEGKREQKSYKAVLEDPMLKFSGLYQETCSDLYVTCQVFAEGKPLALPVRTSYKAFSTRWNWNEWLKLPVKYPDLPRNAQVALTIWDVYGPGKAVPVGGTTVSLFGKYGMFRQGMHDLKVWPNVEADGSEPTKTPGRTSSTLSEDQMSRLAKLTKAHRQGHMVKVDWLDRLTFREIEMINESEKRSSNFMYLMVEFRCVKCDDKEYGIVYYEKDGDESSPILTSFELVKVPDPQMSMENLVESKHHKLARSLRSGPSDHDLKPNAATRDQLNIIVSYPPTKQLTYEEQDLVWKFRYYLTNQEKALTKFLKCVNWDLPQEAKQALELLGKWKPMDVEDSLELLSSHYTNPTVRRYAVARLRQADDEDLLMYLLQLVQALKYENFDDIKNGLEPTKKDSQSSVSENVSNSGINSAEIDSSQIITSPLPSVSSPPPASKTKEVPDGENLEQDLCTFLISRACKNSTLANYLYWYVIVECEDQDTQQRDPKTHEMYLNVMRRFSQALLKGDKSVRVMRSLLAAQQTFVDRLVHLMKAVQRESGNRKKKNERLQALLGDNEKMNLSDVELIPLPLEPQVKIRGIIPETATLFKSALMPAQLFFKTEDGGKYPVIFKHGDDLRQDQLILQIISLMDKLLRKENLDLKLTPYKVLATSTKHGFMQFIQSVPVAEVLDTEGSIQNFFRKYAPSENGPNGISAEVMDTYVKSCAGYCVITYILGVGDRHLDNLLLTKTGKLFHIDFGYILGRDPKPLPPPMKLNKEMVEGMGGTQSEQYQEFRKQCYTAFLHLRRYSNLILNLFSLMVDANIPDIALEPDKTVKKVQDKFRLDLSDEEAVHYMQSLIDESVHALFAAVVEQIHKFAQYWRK
Sequence of UniProt Q12851 (whole entry, looked up): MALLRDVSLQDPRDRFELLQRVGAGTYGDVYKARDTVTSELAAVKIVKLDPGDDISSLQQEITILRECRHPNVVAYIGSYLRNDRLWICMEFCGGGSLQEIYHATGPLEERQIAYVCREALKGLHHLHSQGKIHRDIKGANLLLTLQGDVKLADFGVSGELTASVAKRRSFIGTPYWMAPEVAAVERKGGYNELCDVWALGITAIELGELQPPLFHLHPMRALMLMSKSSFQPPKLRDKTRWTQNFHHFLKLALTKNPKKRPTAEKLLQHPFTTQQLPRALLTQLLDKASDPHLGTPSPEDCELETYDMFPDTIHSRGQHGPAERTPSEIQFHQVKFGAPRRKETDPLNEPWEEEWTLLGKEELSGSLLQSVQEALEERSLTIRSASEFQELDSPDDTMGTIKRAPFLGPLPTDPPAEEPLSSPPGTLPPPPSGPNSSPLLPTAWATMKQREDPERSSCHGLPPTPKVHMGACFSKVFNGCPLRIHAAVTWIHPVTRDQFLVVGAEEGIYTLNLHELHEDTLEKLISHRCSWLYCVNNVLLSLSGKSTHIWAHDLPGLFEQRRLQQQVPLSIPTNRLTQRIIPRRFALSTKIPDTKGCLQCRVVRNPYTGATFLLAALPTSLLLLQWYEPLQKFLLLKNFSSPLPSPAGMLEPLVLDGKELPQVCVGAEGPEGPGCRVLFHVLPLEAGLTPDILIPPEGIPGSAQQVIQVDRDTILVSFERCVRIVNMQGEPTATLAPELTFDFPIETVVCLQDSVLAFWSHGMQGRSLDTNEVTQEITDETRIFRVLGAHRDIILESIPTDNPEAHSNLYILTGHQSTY
Sequence of UniProt P49674 (whole entry, looked up): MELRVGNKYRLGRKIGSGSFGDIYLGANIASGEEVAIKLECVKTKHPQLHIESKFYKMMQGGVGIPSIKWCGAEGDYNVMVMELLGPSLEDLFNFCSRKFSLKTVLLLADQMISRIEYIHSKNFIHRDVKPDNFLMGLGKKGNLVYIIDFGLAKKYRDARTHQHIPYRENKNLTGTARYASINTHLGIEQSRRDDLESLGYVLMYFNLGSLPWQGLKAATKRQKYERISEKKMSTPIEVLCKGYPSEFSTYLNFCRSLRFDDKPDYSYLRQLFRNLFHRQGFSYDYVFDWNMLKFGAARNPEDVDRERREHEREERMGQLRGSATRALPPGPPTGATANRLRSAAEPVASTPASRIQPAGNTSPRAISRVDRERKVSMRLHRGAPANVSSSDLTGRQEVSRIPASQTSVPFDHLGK

Set 1 — read-out: enzyme activity; action: inhibitor; tested at: 10 µM
Target: Calcium/calmodulin-dependent protein kinase type II subunit alpha (CAMK2A, Homo sapiens, UniProt Q9UQM7)
Sequence of UniProt Q9UQM7 (whole entry, looked up): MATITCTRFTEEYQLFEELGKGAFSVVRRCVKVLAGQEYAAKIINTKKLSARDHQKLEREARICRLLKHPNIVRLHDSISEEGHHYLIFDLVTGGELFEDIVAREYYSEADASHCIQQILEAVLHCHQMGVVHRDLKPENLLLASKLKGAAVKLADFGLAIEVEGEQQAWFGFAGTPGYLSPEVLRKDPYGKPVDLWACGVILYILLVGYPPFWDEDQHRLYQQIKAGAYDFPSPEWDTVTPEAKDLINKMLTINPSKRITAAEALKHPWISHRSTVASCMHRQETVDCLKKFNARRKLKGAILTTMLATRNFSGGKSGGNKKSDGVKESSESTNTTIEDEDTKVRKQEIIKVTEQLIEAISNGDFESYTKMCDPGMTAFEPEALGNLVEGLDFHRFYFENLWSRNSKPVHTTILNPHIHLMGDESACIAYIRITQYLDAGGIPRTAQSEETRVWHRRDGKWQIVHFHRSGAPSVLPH
SMILES | inhibition [%]
C[C@]1(C(=O)O)CC[C@]2(C)CC[C@]3(C)C(=CC(=O)[C@@H]4[C@@]5(C)CC[C@H](O[C@@H]6O[C@H](C(=O)O)[C@@H](O)[C@H](O)[C@H]6O[C@@H]6O[C@H](C(=O)O)[C@@H](O)[C@H](O)[C@H]6O)[C@](C)(CO)[C@@H]5CC[C@]43C)[C@@H]2C1 | 2
CC1(C)CC[C@]2(C(=O)O)[C@H](O)C[C@]3(C)C(=CC[C@@H]4[C@@]5(C)CC[C@H](O)[C@@](C)(C=O)[C@@H]5CC[C@]43C)[C@@H]2C1 | -10
O=C(O)c1ccccc1Nc1cc(Cl)ccc1C(=O)O | -14
COc1cc2c(c(OC)c1OC)C(=O)c1c(cc(C)c(O)c1OC)C2=O | 1
NC(=O)c1ccc[n+]([C@@H]2O[C@H](CO)[C@@H](O)[C@H]2O)c1 | -17
O=C1C[C@@H](c2ccc(O[C@@H]3O[C@H](CO)[C@@H](O)[C@H](O)[C@H]3O)cc2)Oc2cc(O[C@@H]3OC[C@](O)(CO)[C@H]3O)ccc21 | -31
O=C(O)/C=C/c1c[nH]c2ccccc12 | -13
C[C@@H]1O[C@@H](Oc2c(-c3ccc(O)c(O)c3)oc3cc(O)cc(O)c3c2=O)[C@H](O)[C@H](O)[C@H]1O | -1
COC(=O)c1ccc(OC)c(O)c1 | 27
CC(=O)CO | -14
Cc1[nH]c2ccccc2c1CCNCc1ccc(/C=C/C(=O)NO)cc1 | 7

Set 2 — read-out: cell-free assay; technique: competition with immobilised ligand; tested at: 1 µM
Structure (SMILES): N#CC1(c2ccccn2)CCN(Cc2cc(C(=O)N3CCCC3)c(=O)n3ccccc23)CC1
target | remaining binding [%]
Mitogen-activated protein kinase kinase kinase 19 (MAP3K19, Homo sapiens, UniProt Q56UN5) | 100
MAP kinase-interacting serine/threonine-protein kinase 1 (MKNK1, Homo sapiens, UniProt Q9BUB5) | 100
Mast/stem cell growth factor receptor Kit (KIT, Homo sapiens, UniProt P10721, D816H) | 100
Receptor-type tyrosine-protein kinase FLT3 (FLT3, Homo sapiens, UniProt P36888, D835V) | 98
Receptor-type tyrosine-protein kinase FLT3 (FLT3, Homo sapiens, UniProt P36888) | 86
Wee1-like protein kinase (WEE1, Homo sapiens, UniProt P30291) | 74
Insulin receptor-related protein (INSRR, Homo sapiens, UniProt P14616) | 93
Myotonin-protein kinase (DMPK, Homo sapiens, UniProt Q09013) | 90
Wee1-like protein kinase 2 (WEE2, Homo sapiens, UniProt P0C1S8) | 91
Mitogen-activated protein kinase kinase kinase 3 (MAP3K3, Homo sapiens, UniProt Q99759) | 92
Cyclin-dependent kinase 14 (CDK14, Homo sapiens, UniProt O94921) | 100
Mitogen-activated protein kinase kinase kinase kinase 2 (MAP4K2, Homo sapiens, UniProt Q12851) | 96
MAP/microtubule affinity-regulating kinase 4 (MARK4, Homo sapiens, UniProt Q96L34) | 90
Ephrin type-B receptor 2 (EPHB2, Homo sapiens, UniProt P29323) | 77
Phosphatidylinositol 3-kinase catalytic subunit type 3 (PIK3C3, Homo sapiens, UniProt Q8NEB9) | 89
Serine/threonine-protein kinase 32C (STK32C, Homo sapiens, UniProt Q86UX6) | 100
Casein kinase I isoform epsilon (CSNK1E, Homo sapiens, UniProt P49674) | 100
Proto-oncogene tyrosine-protein kinase Src (SRC, Homo sapiens, UniProt P12931) | 56
Dual serine/threonine and tyrosine protein kinase (DSTYK, Homo sapiens, UniProt Q6XUX3) | 80
Tyrosine-protein kinase ABL1, non-phosphorylated (ABL1, Homo sapiens, UniProt P00519, F317L) | 92
Serine/threonine-protein kinase TAO3 (TAOK3, Homo sapiens, UniProt Q9H2K8) | 100
Fibroblast growth factor receptor 1 (FGFR1, Homo sapiens, UniProt P11362) | 93
Serine/threonine-protein kinase N2 (PKN2, Homo sapiens, UniProt Q16513) | 88
Myosin light chain kinase family member 4 (MYLK4, Homo sapiens, UniProt Q86YV6) | 95
Homeodomain-interacting protein kinase 3 (HIPK3, Homo sapiens, UniProt Q9H422) | 97

Set 3 — read-out: enzyme activity; action: inhibitor; tested at: 0.5 µM; reference: control
Target: Mitogen-activated protein kinase kinase kinase 11 (MAP3K11, Homo sapiens, UniProt Q16584)
Sequence of UniProt Q16584 (whole entry, looked up): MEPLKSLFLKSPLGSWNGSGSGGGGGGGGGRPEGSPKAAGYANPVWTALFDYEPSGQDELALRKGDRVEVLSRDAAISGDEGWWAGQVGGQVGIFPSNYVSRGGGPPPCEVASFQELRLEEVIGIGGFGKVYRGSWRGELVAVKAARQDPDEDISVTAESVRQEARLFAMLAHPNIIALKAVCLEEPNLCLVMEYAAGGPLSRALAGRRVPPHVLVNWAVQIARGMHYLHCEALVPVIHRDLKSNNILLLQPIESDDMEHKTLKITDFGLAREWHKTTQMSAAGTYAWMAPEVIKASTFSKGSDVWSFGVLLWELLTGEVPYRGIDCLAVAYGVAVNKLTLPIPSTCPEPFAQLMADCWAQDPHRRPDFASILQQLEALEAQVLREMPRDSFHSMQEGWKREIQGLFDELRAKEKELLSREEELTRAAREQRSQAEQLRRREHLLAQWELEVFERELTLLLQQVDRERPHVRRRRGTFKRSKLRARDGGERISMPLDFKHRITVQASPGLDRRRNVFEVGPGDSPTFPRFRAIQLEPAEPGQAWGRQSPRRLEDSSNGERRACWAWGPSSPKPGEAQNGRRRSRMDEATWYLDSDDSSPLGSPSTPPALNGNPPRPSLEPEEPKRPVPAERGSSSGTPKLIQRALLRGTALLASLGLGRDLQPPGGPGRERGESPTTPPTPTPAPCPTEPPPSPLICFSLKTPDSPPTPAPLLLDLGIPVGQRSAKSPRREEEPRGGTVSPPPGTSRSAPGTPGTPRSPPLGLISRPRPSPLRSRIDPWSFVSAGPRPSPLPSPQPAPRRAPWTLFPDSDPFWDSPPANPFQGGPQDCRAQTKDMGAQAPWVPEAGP
SMILES | remaining activity [%]
O=C1Cc2c([nH]c3ccc(Br)cc23)-c2ccccc2N1 | 49.4
c1ccc2c(-c3ccncc3)c[nH]c2c1 | 95.2
CN(C)S(=O)(=O)c1ccc2c(c1)/C(=C/c1cc3c([nH]1)CCCC3)C(=O)N2 | 57.4
N#Cc1cnc2cnc(NCc3cccnc3)cc2c1Nc1ccc(F)c(Cl)c1 | 89
Cc1cc(Nc2cc(N3CCN(C)CC3)nc(Sc3ccc(NC(=O)C4CC4)cc3)n2)[nH]n1 | 52.7
O=C1NC(=O)c2c1c1c3ccccc3[nH]c1c1[nH]c3cc(Br)ccc3c21 | 14
Cc1ccc(S(=O)(=O)/C=C/C#N)cc1 | 98.2
CCCCc1c(-c2ccc(OC)cc2)[nH]c2nccnc12 | 39.4
Oc1cccc(-c2nc(N3CCOCC3)c3oc4ncccc4c3n2)c1 | 96.5
O=Nc1c(-c2c(O)[nH]c3cc(Br)ccc23)[nH]c2ccccc12 | 16

Set 4
Structure (SMILES): COc1cc(C(=O)N2CCC(N3CCN(C)CC3)CC2)ccc1Nc1ncc2c(n1)N(C)c1ccccc1C(=O)N2C
target or system | test | system | setting | inhibition [%]
MYLK | KiNativ ATP probe | human PBMC lysate | 1 µM, ATP loop site | 14.6
PIP4K2C (mouse) | probe labelling, KiNativ, item: VKELPTLkDMDFLNK peptide, ATP site | brain tissue lysate (mouse) | 1 µM, together with: ATP acyl-phosphate probe | 15.4
AKT1 and AKT3 mouse | KiNativ profiling | mouse brain lysate | 1 µM, LYS1 site, together with: ADP acyl phosphate probe | 5.9
MARK3 and MARK4 (mouse) | probe labelling, KiNativ, item: EVAIkIIDK peptide, LYS1 site | brain tissue lysate (mouse) | 0.1 µM, together with: ADP acyl-phosphate probe | -2.5
INSR (mouse) | probe labelling, KiNativ ADP probe | mouse brain lysate | 1 µM, LYS1 labelled site | 16
human PBMC | probe labeling, inhibitor, KiNativ profiling, item: APVAIkVFK | cell lysate | concentration not given, LYS1 site, together with: ATP acyl-phosphate probe | -3.6
Protein kinase C zeta type (Prkcz, Mus musculus, UniProt Q02956) | probe labelling, KiNativ, item: Lys1 site peptide | brain tissue lysate (mouse) | 1 µM, together with: ADP acyl-phosphate probe | 5
NEK7 human | KiNativ profiling | human PBMC | 1 µM, activation loop site, together with: ATP acyl phosphate probe | -8.1
PIK3CB human | KiNativ profiling | human PBMC | 1 µM, ATP site, together with: ATP acyl phosphate probe | -1.8

Some of these lines once more (set 1):
SMILES | inhibition [%]
NC(=O)c1ccc[n+]([C@@H]2O[C@H](CO)[C@@H](O)[C@H]2O)c1 | -17
O=C1C[C@@H](c2ccc(O[C@@H]3O[C@H](CO)[C@@H](O)[C@H](O)[C@H]3O)cc2)Oc2cc(O[C@@H]3OC[C@](O)(CO)[C@H]3O)ccc21 | -31
O=C(O)/C=C/c1c[nH]c2ccccc12 | -13
C[C@@H]1O[C@@H](Oc2c(-c3ccc(O)c(O)c3)oc3cc(O)cc(O)c3c2=O)[C@H](O)[C@H](O)[C@H]1O | -1
COC(=O)c1ccc(OC)c(O)c1 | 27
CC(=O)CO | -14
Cc1[nH]c2ccccc2c1CCNCc1ccc(/C=C/C(=O)NO)cc1 | 7
